Measurements collected from several papers.
A part holds a random share of what one study measured.

Study 1 — method: aptamer microarray, sandwich; molecule type: DNA with 2'F-ANA; sample: in vitro; concentration: 200 nM; together with: Cy3 exosite-II aptamer, 400 nM; reading: higher = stronger binding; sequence: GGTTGGTGTGGTTGG
Target: Prothrombin, mature alpha-thrombin (F2, Homo sapiens, UniProt P00734)
Notes: whole 15-mer aptamer, many near background
| Modification | mean fluorescence intensity [a.u.] |
| --- | --- |
| 2'F-ANA at 1 2 4 9 12 14 15 | 109 |
| 2'F-ANA at 1 2 4 5 7 8 9 10 12 13 15 | 50.4 |
| 2'F-ANA at 7 8 10 13 14 | 170 |
| 2'F-ANA at 4 6 7 8 14 15 | 102 |
| 2'F-ANA at 1 2 3 5 9 10 12 13 | 52.8 |
| 2'F-ANA at 2 3 4 5 7 10 13 | 122 |
| 2'F-ANA at 1 4 5 6 8 10 11 14 | 47.4 |
| 2'F-ANA at 4 5 7 8 10 11 13 14 | 64 |
| 2'F-ANA at 3 6 7 9 10 11 13 | 430 |
| 2'F-ANA at 1 2 3 7 8 10 12 15 | 94.2 |
| 2'F-ANA at 1 3 6 7 8 11 13 15 | 242 |

Study 2 — method: RNAcompete; molecule type: RNA; sample: in vitro; concentration: 20 nM; notes: 7-mer, probes averaged, single round; relative to: mean of 7-mers; reading: higher = stronger binding
Target: PABPC1L2, full length, GST fusion (mouse, UniProt A0ABA7IW68)
Residues (chain): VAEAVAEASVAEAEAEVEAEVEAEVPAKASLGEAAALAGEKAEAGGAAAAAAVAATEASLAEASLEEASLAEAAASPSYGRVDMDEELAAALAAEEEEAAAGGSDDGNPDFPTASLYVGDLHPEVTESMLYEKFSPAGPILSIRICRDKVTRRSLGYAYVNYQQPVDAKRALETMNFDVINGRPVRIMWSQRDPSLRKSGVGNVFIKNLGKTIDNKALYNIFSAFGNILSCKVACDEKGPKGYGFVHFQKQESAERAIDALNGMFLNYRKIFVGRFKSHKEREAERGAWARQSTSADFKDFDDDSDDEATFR
| Sequence | 7-mer Z-score |
| --- | --- |
| CUCAGUC | -0.215 |
| CGGAGCG | 0.0968 |
| CCUGUCU | -0.385 |
| UACACCU | -0.291 |
| CACACGG | 0.0732 |
| GGCCUCG | -0.224 |
| UCAUGCU | -0.195 |
| GAUGGCC | -0.0826 |
| GUCCAAU | -0.15 |
| GCAGGUA | 0.157 |
| CGAACUU | -0.226 |
| ACAUGCC | -0.139 |
| AGGCAAU | 0.244 |
| GUGUGUG | -0.342 |

Study 3 — method: protein-binding microarray; molecule type: double-stranded DNA, one strand shown; sample: in vitro; concentration: 2200 nM top; notes: 60-bp whole probe; together with: salmon DNA 0.4 mg/ml; relative to: random background probes; reading: higher = stronger binding; all sequences stand within: GCCTAGCAC … GTCTTGATTCGCTTGACGCTGCTG
Target: Interferon regulatory factor 7, full length, phosphomimetic (IRF7, Homo sapiens, UniProt Q92985, residues 1-503, S471D/S472D/S475D/S476D/S477D/S483D/S484D/S487D)
Sequence of UniProt Q92985 (whole entry, unmodified, looked up): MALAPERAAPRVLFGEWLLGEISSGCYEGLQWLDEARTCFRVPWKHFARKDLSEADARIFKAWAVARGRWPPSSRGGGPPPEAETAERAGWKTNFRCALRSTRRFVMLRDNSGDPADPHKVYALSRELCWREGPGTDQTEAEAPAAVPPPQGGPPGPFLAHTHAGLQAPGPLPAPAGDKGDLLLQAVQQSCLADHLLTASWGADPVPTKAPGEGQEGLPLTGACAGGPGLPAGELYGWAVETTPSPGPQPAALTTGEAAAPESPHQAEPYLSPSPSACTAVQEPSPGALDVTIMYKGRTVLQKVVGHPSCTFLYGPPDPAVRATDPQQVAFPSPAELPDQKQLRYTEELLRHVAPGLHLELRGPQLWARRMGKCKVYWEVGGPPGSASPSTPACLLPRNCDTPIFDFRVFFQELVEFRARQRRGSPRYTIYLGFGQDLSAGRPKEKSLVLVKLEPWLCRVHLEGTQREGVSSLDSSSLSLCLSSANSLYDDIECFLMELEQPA
| Sequence | fitted relative affinity [z-score] |
| --- | --- |
| TCATTTATCAAATGTGGGACTGTGCTA | 0.49 |
| GGATGACTCCCTCTCTGGCCGTGCTAG | 0.185 |
| TTAGAACTGGGGAATGGATTAGTGCTA | -0.461 |
| GACGGTTTCGGTTCCGCGACGTGCTAG | 11.5 |
| TTAGATCTCAGACTTGATTAGTGCTAG | -0.279 |
| TTAAAAAAAAAAAACTGTAACGTGCTA | -2.23 |

Further values, each from its own experiment
| Molecule | target | assay | system | setting | scale | endpoint | value |
| --- | --- | --- | --- | --- | --- | --- | --- |
| PhoQ, residues 284 288 289 292 302 303 SSLVEF | PhoP, residues 12 14 15 18 19 GQALL (Escherichia coli, UniProt P23836) | Sort-seq, item: YFP reporter | E. coli | PhoQ-PhoP variant library, together with: 10 µM Mg2+ | relative to: high Mg2+ state, higher = stronger signaling | fold induction | 13.6 |

A few entries again (study 1):
| Modification | mean fluorescence intensity [a.u.] |
| --- | --- |
| 2'F-ANA at 4 5 7 8 10 11 13 14 | 64 |
| 2'F-ANA at 3 6 7 9 10 11 13 | 430 |
| 2'F-ANA at 1 2 3 7 8 10 12 15 | 94.2 |
| 2'F-ANA at 1 3 6 7 8 11 13 15 | 242 |
